Published values collected from several papers.
± marks the error that the study gave.
YWHAZ: 14-3-3 protein zeta/delta (YWHAZ, Homo sapiens, UniProt P63104)
Chain of UniProt P63104 (whole entry, looked up): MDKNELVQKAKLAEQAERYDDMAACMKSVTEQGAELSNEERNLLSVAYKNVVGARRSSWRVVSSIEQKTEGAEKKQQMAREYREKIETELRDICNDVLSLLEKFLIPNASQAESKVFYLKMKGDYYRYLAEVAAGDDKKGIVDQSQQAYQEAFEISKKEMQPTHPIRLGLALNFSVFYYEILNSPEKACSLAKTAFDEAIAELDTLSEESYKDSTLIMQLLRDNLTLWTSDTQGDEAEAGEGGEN
Chain of UniProt O35082 (whole entry, looked up): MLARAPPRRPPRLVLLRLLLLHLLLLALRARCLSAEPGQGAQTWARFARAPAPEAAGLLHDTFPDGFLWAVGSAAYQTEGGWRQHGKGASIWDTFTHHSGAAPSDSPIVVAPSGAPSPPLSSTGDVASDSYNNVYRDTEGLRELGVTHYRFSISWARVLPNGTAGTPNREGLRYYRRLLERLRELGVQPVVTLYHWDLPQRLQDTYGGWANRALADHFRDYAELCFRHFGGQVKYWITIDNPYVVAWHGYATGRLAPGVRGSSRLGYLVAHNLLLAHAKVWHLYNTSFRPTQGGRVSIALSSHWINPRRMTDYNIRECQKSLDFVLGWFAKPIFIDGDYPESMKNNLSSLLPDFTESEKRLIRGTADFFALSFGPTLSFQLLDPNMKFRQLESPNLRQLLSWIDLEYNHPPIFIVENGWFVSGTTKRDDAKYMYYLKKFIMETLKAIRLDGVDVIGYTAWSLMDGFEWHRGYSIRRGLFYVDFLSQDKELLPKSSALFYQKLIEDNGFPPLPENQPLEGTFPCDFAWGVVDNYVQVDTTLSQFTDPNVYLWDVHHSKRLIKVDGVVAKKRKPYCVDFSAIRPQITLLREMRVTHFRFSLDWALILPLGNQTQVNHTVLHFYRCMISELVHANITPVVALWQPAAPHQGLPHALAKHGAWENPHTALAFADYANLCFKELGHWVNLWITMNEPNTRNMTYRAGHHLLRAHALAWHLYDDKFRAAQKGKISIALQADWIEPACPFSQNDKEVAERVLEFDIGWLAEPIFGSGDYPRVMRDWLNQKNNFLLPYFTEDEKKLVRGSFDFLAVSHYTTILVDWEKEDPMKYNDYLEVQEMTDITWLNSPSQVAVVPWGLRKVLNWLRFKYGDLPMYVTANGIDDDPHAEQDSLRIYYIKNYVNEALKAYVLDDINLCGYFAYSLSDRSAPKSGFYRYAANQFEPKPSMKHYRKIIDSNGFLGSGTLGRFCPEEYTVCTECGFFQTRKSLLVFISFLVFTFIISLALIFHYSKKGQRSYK
Chain of UniProt Q15109 (whole entry, looked up): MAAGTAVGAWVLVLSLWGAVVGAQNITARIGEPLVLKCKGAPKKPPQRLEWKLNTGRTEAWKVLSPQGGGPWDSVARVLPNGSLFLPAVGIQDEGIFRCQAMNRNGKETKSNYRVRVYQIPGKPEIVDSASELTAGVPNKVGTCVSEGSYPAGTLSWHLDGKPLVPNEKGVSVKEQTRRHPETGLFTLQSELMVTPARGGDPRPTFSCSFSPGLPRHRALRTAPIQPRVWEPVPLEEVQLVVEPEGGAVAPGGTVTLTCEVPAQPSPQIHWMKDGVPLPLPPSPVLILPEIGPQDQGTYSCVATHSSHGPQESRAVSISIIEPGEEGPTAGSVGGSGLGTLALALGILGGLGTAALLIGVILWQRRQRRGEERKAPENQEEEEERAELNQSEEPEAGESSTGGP
Chain of UniProt O66465 (whole entry, unmodified, looked up): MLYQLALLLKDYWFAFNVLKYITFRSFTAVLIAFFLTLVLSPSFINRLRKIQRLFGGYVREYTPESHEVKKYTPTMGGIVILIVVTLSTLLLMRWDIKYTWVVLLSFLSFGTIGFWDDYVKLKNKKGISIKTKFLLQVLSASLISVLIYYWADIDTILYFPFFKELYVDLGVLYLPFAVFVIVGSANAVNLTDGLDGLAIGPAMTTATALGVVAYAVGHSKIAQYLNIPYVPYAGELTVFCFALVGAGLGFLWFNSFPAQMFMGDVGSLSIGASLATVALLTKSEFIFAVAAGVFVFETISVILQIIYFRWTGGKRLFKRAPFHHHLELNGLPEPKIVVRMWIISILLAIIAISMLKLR
Chain of UniProt Q767F1 (whole entry, unmodified, looked up): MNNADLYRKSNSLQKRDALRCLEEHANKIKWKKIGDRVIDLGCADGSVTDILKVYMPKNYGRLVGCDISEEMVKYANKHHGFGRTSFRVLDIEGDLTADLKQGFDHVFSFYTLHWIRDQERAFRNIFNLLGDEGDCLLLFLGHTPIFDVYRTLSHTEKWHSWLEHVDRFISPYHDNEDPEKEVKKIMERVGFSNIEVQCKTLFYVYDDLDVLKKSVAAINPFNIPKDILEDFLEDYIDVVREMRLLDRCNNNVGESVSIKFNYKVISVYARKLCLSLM
Chain of UniProt Q08460 (whole entry, looked up): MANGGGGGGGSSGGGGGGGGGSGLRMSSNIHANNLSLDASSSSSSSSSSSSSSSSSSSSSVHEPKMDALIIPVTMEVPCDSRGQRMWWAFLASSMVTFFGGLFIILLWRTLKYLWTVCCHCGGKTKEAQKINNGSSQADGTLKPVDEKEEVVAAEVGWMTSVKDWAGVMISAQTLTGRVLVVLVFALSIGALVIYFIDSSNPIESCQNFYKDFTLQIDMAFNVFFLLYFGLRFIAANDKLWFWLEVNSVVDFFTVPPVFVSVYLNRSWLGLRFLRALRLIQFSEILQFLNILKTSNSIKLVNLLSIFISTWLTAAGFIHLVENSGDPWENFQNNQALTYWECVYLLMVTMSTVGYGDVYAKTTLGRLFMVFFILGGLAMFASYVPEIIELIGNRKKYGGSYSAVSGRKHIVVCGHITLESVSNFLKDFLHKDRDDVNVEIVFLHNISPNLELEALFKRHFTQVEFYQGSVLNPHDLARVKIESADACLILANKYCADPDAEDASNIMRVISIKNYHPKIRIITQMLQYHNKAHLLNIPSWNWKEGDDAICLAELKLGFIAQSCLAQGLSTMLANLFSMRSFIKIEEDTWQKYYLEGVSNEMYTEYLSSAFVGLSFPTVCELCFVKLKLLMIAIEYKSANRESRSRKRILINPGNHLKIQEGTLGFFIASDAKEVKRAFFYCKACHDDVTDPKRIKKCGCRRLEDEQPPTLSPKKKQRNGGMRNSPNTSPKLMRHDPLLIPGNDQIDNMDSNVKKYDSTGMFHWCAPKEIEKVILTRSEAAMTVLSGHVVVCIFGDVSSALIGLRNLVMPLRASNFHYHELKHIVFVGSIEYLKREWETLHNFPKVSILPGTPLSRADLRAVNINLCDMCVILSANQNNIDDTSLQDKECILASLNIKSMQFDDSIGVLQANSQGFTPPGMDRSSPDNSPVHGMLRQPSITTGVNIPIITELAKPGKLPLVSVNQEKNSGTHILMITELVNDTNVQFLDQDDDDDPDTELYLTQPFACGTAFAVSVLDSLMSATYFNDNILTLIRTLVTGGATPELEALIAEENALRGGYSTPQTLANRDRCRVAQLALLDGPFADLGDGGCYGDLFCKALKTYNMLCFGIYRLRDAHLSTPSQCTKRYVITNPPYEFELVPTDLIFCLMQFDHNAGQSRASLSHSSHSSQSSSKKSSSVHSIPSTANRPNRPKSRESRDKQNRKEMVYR
Chain of UniProt O14976 (whole entry, looked up): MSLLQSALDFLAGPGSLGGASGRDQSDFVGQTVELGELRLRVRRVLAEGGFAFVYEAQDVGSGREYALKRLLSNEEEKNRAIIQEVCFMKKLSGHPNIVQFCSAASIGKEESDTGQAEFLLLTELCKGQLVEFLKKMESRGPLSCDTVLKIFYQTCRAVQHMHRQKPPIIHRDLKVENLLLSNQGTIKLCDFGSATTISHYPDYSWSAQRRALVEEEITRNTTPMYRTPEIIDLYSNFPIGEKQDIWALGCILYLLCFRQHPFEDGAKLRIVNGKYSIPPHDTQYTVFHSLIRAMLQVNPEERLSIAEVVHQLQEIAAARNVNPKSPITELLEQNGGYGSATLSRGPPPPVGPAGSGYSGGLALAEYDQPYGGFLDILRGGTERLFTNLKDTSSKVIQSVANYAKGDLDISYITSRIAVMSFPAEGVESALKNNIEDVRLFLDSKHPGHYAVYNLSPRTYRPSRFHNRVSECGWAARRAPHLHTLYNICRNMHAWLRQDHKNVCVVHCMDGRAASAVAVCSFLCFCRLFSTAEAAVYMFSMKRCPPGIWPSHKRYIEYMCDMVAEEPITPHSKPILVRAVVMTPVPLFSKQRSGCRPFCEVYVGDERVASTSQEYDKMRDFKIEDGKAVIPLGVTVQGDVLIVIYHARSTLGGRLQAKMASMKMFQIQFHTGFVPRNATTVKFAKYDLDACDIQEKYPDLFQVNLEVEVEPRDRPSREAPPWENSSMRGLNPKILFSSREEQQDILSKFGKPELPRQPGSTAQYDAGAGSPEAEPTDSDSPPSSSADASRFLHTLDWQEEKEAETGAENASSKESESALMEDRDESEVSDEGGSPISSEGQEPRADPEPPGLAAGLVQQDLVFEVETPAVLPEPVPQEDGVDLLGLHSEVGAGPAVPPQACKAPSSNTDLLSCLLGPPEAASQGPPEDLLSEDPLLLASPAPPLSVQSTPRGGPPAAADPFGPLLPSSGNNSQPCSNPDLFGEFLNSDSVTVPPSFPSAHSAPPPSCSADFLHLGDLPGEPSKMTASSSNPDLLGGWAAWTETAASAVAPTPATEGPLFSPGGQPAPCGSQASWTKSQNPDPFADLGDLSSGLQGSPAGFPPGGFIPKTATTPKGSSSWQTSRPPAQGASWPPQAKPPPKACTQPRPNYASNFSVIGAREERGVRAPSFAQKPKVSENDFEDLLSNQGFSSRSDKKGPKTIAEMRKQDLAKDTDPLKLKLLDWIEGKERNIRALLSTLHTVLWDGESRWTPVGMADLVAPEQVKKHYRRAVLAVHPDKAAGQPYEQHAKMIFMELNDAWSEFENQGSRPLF

CC(C)CC(NC(=O)C(NC(=O)NC(C(=O)O)C(C)C)C1CCNC(=N)N1)C(=O)NCCCNC(C(=O)O)C(OC1OC(CN)C(O)C1O)C1OC(n2ccc(=O)[nH]c2=O)C(O)C1O (centres unmarked) — Kd (Phospho-N-acetylmuramoyl-pentapeptide-transferase (mraY, Aquifex aeolicus, UniProt O66465, F262A); binding, ITC): 228 nM
Nc1ncnc2c1ncn2[C@@H]1O[C@H](COP(=O)(O)OP(=O)(O)OP(=O)(O)O)[C@@H](O)[C@H]1O — Kd (dnaA (Escherichia coli, UniProt P03004, D118Q); binding, radiometric): 2200 nM
CC[C@H](C)[C@H](N)C(=O)NCC(=O)N[C@@H](Cc1c[nH]cn1)C(=O)N[C@@H](CO)C(=O)N1CCC[C@H]1C(=O)N1CCC[C@H]1C(=O)N1CCC[C@H]1C(=O)N[C@@H](C)C(=O)N[C@@H](Cc1ccc(O)cc1)C(=O)N[C@H](C(=O)N1CCC[C@H]1C(=O)N[C@@H](CCSC)C(=O)N[C@@H](CO)C(=O)O)[C@@H](C)O — Kd (WW domain-containing oxidoreductase, WW1-WW2 tandem domains (WWOX, Homo sapiens, UniProt Q9NZC7); ITC; tandem WW1-WW2 domain; pH 7.8, 20 °C, some values lower limits only): > 100000 nM
N=C(N)NCCC[C@@H]1NC(=O)[C@H](CCCCNC(=O)CNC(=O)CNC(=O)CNC(=O)CC[C@H](NC(=O)CCOCCOCCOCCOCCNC(=O)CC[C@H](NC(=O)CN2CCN(CC(=O)O)CCN(CC(=O)O)CCN(CC(=O)O)CC2)C(=O)NCCOCCOCCOCCOCCC(=O)N[C@@H](CCC(=O)NCC(=O)NCC(=O)NCC(=O)NCCCC[C@@H]2NC(=O)[C@@H](Cc3ccccc3)NC(=O)[C@H](CC(=O)O)NC(=O)CNC(=O)[C@H](CCCNC(=N)N)NC2=O)C(=O)NCC(=O)NCC(=O)NCC(=O)NCCCC[C@@H]2NC(=O)[C@@H](Cc3ccccc3)NC(=O)[C@H](CC(=O)O)NC(=O)CNC(=O)[C@H](CCCNC(=N)N)NC2=O)C(=O)NCC(=O)NCC(=O)NCC(=O)NCCCC[C@@H]2NC(=O)[C@@H](Cc3ccccc3)NC(=O)[C@H](CC(=O)O)NC(=O)CNC(=O)[C@H](CCCNC(=N)N)NC2=O)NC(=O)[C@@H](Cc2ccccc2)NC(=O)[C@H](CC(=O)O)NC(=O)CNC1=O [indium-111 labelled] — tissue uptake (female athymic nude mice, intestine; intravenous, 3 µCi, 72 h, U-87 MG glioma xenograft): 1.22 ± 0.61 %ID/g
CC(=O)NC1C(OC2C(O)C(CO)OC(O)C2OC2OC(C)C(O)C(O)C2O)OC(CO)C(O)C1O (centres unmarked) — Kd (sly, domain 4 (Streptococcus suis, UniProt Q55996); binding): 4.4 nM
CC[C@H](C)[C@H](NC(=O)[C@@H](NC(=O)[C@H](Cc1c[nH]c2ccccc12)NC(=O)[C@H](CCC(=O)O)NC(=O)[C@H](CO)NC(=S)Nc1ccc2c(c1)C(=O)OC21c2ccc(O)cc2Oc2cc(O)ccc21)C(C)C)C(=O)N[C@H](C(=O)N[C@H](C(=O)N1CCC[C@H]1C(=O)N[C@@H](C)C(=O)N[C@@H](CC(C)C)C(=O)N[C@H](C(=O)N[C@@H](CC(N)=O)C(=O)N[C@@H](CC(C)C)C(=O)O)[C@@H](C)O)[C@@H](C)CC)C(C)C — Kd (Rgg transcriptional regulator (Streptococcus pneumoniae, UniProt A0A0E7KI02); binder, fluorescence polarization; 20 min, pH 7.4, 20 °C, fluorescein-labelled peptide): 7100 ± 400 nM
CC(=O)NCCCC[C@H](NC(=O)CNC(=O)[C@@H]1CCCN1C(=O)[C@@H](NC(=O)[C@H](COP(=O)(O)O)NC(=O)[C@H](CCCCN)NC(=O)[C@H](CCCNC(=N)N)NC(=O)[C@H](C)NC(=O)[C@@H](NC(=O)[C@H](CCC(N)=O)NC(=O)[C@H](CCCCN)NC(=O)[C@@H](NC(=O)[C@H](CCCNC(=N)N)NC(=O)[C@H](C)N)[C@@H](C)O)[C@@H](C)O)[C@@H](C)O)C(=O)N[C@@H](C)C(=O)N1CCC[C@H]1C(=O)N[C@@H](CCCNC(=N)N)C(=O)N[C@@H](CCCCN)C(=O)N[C@@H](CCC(N)=O)C(=O)N[C@@H](CC(C)C)C(=O)O — Kd (YWHAZ; binding, fluorescence polarization; with: modified histone H3 peptides): 40000 nM
N=C(N)NCCC[C@@H]1NC(=O)[C@H](CCCCNC(=O)CC[C@H](NC(=O)CCOCCOCCOCCOCCNC(=O)CC[C@H](NC(=O)CN2CCN(CC(=O)O)CCN(CC(=O)O)CCN(CC(=O)O)CC2)C(=O)NCCOCCOCCOCCOCCC(=O)N[C@@H](CCC(=O)NCCCC[C@@H]2NC(=O)[C@@H](Cc3ccccc3)NC(=O)[C@H](CC(=O)O)NC(=O)CNC(=O)[C@H](CCCNC(=N)N)NC2=O)C(=O)NCCCC[C@@H]2NC(=O)[C@@H](Cc3ccccc3)NC(=O)[C@H](CC(=O)O)NC(=O)CNC(=O)[C@H](CCCNC(=N)N)NC2=O)C(=O)NCCCC[C@@H]2NC(=O)[C@@H](Cc3ccccc3)NC(=O)[C@H](CC(=O)O)NC(=O)CNC(=O)[C@H](CCCNC(=N)N)NC2=O)NC(=O)[C@@H](Cc2ccccc2)NC(=O)[C@H](CC(=O)O)NC(=O)CNC1=O [indium-111 labelled] — tissue uptake (female athymic nude mice, intestine; intravenous, 3 µCi, 4 h, U-87 MG glioma xenograft): 7.98 ± 4.47 %ID/g
CN(C)CC1CCCCC1(O)c1cccc(O)c1 (centres unmarked) — efflux increase (Caco-2; concentration not given, 3 h, pH 7.4, basolateral-to-apical, with: cyclosporine A 10 µM): ≤ 14%
Cc1ccc(/C=C/C(=O)c2ccc(OS(=O)(=O)c3cccs3)cc2)cc1 — Kd (CP, capsid (Tobacco mosaic virus, UniProt P69687); binding, MST): 56400 nM
CN[C@](C)(C[18F])C(=O)O — tracer uptake (MDA-MB-468 tumour model; host not given, pancreas; 30 min, tumour-bearing): 42 %ID/g
CC(C)C[C@H](NC(=O)[C@@H]1CCCN1C(=O)[C@H](CCCCN)NC(=O)CCS[C@@H]1O[C@H](CO)[C@H](O)[C@H](O)[C@H]1O)C(N)=O — Kd (PA-I galactophilic lectin (lecA, Pseudomonas aeruginosa, UniProt Q05097); binding, ITC): 37000 nM
CC(C)=CCC/C(C)=C/CC/C(C)=C/C(=O)O — Kd (Juvenile hormone acid O-methyltransferase (JHAMT, Bombyx mori, UniProt Q767F1, Q14A); binding, fluorescence binding; pH 8.0, 25 °C): 270 ± 50 nM
CC(C)C[C@H](NC(=O)[C@@H]1CCCN1C(=O)[C@H](CC(=O)O)NC(=O)[C@H](CO)NC(=O)[C@H](C)NC(=O)CC1c2ccccc2-c2ccccc21)C(=O)NCC(=O)N[C@H](C(=O)N[C@H](C(=O)N[C@@H](CCCNC(=N)N)C(=O)N1CCC[C@H]1C(=O)N[C@@H](CCCNC(=N)N)C(N)=O)C(C)C)C(C)C — Kd (Klotho (Kl, Mus musculus, UniProt O35082); BLI competition binding; 30 min, 30 °C, with: 100 nM mouse Klotho, immobilized Pep-10-Biotin): 357 ± 66 nM
CC(C)C[C@H](NC(=O)[C@H](CC(=O)O)NC(=O)[C@H](CCCCNCC(=O)O)NC(=O)[C@@H](N)Cc1ccccc1)C(=O)NCC(=O)N[C@@H](CCC(=O)O)C(=O)N[C@@H](CCC(=O)O)C(=O)O — Kd (Advanced glycosylation end product-specific receptor (AGER, Homo sapiens, UniProt Q15109); binding, fluorescence): 87000 nM
CC(C)[C@@H]1NC(=O)[C@H](CC(N)=O)NC(=O)C2(CCCCC2)NC(=O)[C@H](Cc2ccc(OP(=O)(O)O)cc2)NC(=O)[C@H](CCCCN)NC1=O — Kd (Growth factor receptor-bound protein 2, SH2 (GRB2, Homo sapiens, UniProt P62993); binding): 7550 nM
CCCCCc1cc(O)c2c(c1)OC(C)(C)C1CCC(C)=CC21 (single isomer, unassigned; (-)) — IC50 (Cytochrome P450 2C19 (CYP2C19, Homo sapiens, UniProt P33261); inhibitor, probe substrate; recombinant microsomes, HEK293; unbound, corrected for fu,inc, with: omeprazole): 150 ± 30 nM
CC[C@H](C)[C@H](NC(=O)[C@H](CCCNC(=N)N)NC(=O)[C@H](CCCCN)NC(=O)[C@@H](NC(=O)[C@H](C)NC(=O)[C@H](CCCNC(=N)N)NC(=O)[C@H](CCC(N)=O)NC(=O)[C@H](CO)NC(=O)[C@H](CCCCN)NC(=O)[C@H](CC(N)=O)NC(=O)[C@@H](N)CCCNC(=N)N)[C@@H](C)O)C(=O)N[C@@H](COP(=O)(O)O)C(=O)N[C@@H](Cc1c[nH]cn1)C(=O)N[C@@H](CCSC)C(=O)N1CCC[C@H]1C(=O)N[C@@H](CO)C(=O)N[C@@H](CCCNC(=N)N)C(=O)N1CCC[C@H]1C(=O)N[C@@H](CCC(=O)O)C(=O)N[C@@H](CC(C)C)C(=O)N[C@@H](CO)C(=O)N[C@@H](C)C(=O)N[C@H](C(=O)N[C@@H](C)C(=O)N[C@H](C(=O)N[C@@H](CC(=O)O)C(=O)N[C@@H](CC(C)C)C(=O)N[C@@H](CCCNC(=N)N)C(=O)N[C@@H](CCCCN)C(=O)N[C@@H](CC(=O)O)C(=O)N[C@@H](CCCCN)C(=O)N[C@@H](C)C(=O)N[C@@H](CCCCN)C(=O)N[C@@H](COP(=O)(O)O)C(=O)N[C@@H](CS)C(=O)OC)[C@@H](C)O)C(C)C — Kd (YWHAZ; binding, stopped-flow fluorescence polarization): 230 nM
CCCCCCCC(=O)N[C@@H](CCCCNS(=O)(=O)c1cccc2c(N(C)C)cccc12)C(=O)N[C@H](C(=O)N[C@@H](CCN)C(=O)N[C@H]1CCNC(=O)[C@H]([C@@H](C)O)NC(=O)[C@H](CCN)NC(=O)[C@H](CCN)NC(=O)[C@H](CC(C)C)NC(=O)[C@@H](Cc2ccccc2)NC(=O)[C@H](CCN)NC1=O)[C@@H](C)O — Kd (lipopolysaccharide; binding, fluorescence titration; Pseudomonas aeruginosa; pH 7.0): 1200 ± 200 nM
CC(C)C[C@H](NC(=O)[C@H](CCCNC(=N)N)NC(=O)[C@H](CCC(=O)O)NC(=O)[C@H](CCCCN)NC(=O)[C@H](CCCNC(=N)N)NC(=O)[C@H](CCCCN)NC(=O)[C@H](CCC(=O)O)NC(=O)[C@H](CC(C)C)NC(=O)[C@H](Cc1ccccc1)NC(=O)[C@H](CCCNC(=N)N)NC(=O)[C@H](C)NC(=O)[C@H](CC(C)C)NC(=O)[C@H](CO)NC(=O)[C@]1(C)CCCC=CCCC[C@](C)(NC(=O)[C@@H]2CCCN2C(=O)[C@@H](NC(=O)[C@H](CO)NC(=O)c2ccc3c(c2)C(=O)OC32c3ccc(N(C)C)cc3Oc3cc(N(C)C)ccc32)C(C)C)C(=O)N[C@@H](C)C(=O)N[C@@H](CCCNC(=N)N)C(=O)N[C@@H](CCCCN)C(=O)N1)C(=O)O — Kd (Transcription factor MYC4 (MYC4, Arabidopsis thaliana, UniProt O49687); binding, fluorescence anisotropy; pH 8.0, MYC4 residues 55-253): 2600 ± 300 nM
COc1ccc(-c2cnc3[nH]cc(C#Cc4cccnc4)c3c2)cc1OC — Kd (Cyclin-G-associated kinase (GAK, Homo sapiens, UniProt O14976); binding): 280 nM
CC(C)(O)[C@H]1O[C@H]2CC[C@@]3(C)[C@@](O)(CC[C@H]4Cc5c([nH]c6ccccc56)[C@@]43C)C2=CC1=O — Kd (Kcnma1 (Mus musculus, UniProt Q08460); BK channel current, inhibitor, inside-out patch clamp; Xenopus oocytes; closed channel affinity): 11.8 nM
Nc1ncnc2c1ncn2C1OC(CSCCCCNCc2cccc(-c3ccc(Cl)cc3)c2)C(O)C1O (centres unmarked) — Kd (DNA adenine methyltransferase CamA (Clostridioides difficile, UniProt Q183J3); binding, isothermal titration calorimetry; 25 °C, 10% DMSO, reverse titration): 6000 nM
